Assay results from different studies.
Target: Serine/threonine-protein kinase ULK2 (ULK2, Homo sapiens, UniProt Q8IYT8)

| Compound | test | system | setting | scale | endpoint | result |
| --- | --- | --- | --- | --- | --- | --- |
| Cc1cnc2nc1Nc1cccc(c1)COC/C=C/COCc1cc(ccc1OCCN1CCOCC1)N2 | binding, competition with immobilised ligand |  | 0.1 µM |  | remaining binding | 100% |
| C=CC(=O)N1Cc2nc(-c3cc(-c4cc(Cl)cnc4Cl)c(F)cc3F)n(-c3ccncn3)c2C1 | cell-free assay, inhibitor |  | 1 µM |  | inhibition | 0.7% |
| COc1c(OCCCN2CCOCC2)ccc2c1N=C(NC(=O)c1cnc(N)nc1)N1CCN=C21 | kinase activity, inhibitor |  | 1 µM | baseline: untreated control | remaining activity | 111% |
| C=CC(=O)N1CCc2ccc(-n3c(=O)ccc4cnc5ccc(-c6cnn(C)c6)cc5c43)cc21 | KINOMEscan |  | 1 µM | baseline: DMSO control | remaining binding | 100% |
| CC(C)=CC1OC(C)(C)C2C=C3C(=O)C(Cl)=CC(O)C3C3C(O)C4OC4C(=O)C132 (stereo not drawn) | cell-free assay, competition with immobilised ligand |  | 10 µM |  | remaining binding | 76% |
| CN1CCN(Cc2ccc(NC(=O)c3cccc(C#Cc4cnc(N)c5ncccc45)c3)cc2C(F)(F)F)CC1 | cell-free assay, competition with immobilised ligand |  | 50 nM |  | remaining binding | 80% |
| COc1c(Cl)cccc1Nc1c(-c2ccncc2C#C[C@@]2(C)CCCN2C(=O)/C=C/CN(C)C)[nH]c2c1C(=O)NCC2 | binding, competition with immobilised ligand |  | 3 µM |  | remaining binding | 88% |
| CC(=O)N1c2ccc(-c3ccc(CNC(=O)c4cn5cc(-c6cnc(N)nc6)nc(N6CCOCC6)c5n4)cc3)cc2CC[C@@H]1C | KINOMEscan |  | 10 µM |  | remaining binding | 94% |
| CNC(=O)C1CCN(c2cc(C)c(F)cc2NC(=O)c2ccc(-c3cc(O)ccc3C)c(C)c2)CC1 | binding, competition with immobilised ligand |  | 1 µM |  | remaining binding | 96% |
| C=CC(=O)N1CCCC(n2c(=O)c3ncccc3n(Cc3ccc(Oc4ccccc4)cc3)c2=O)C1 (stereo not drawn) | cell-free assay, competition with immobilised ligand |  | 1 µM |  | remaining binding | 68% |
| NC(=O)C[C@H]1CCc2sc3ncnc(O[C@H]4CC[C@H](N5CCOCC5)CC4)c3c21 | enzyme activity, inhibitor |  | 10 µM |  | inhibition | 1% |
| CNC1C[S+]2CC[S+]3CC[S+](C1)[Ru-4]321([N]=C=S)[n]2c3ccc(OC)cc3c3c4c(c5cc(F)c[n+]1c5c32)C(=O)NC4=O (stereo not drawn) | KinomeScan |  | 0.1 µM | baseline: untreated | remaining binding | 96% |
| Nc1ncc(-c2cc(-c3cnn(CC(F)(F)F)c3)ncc2F)nc1C(=O)NC1CNCC(F)C1 (stereo not drawn) | enzyme activity |  | 1 µM | baseline: DMSO control | remaining activity | 80.5% |
| CC(C)C(Nc1nccnc1-c1ccccc1)C(=O)NCC1CC1 (stereo not drawn) | cell-free assay, competition with immobilised ligand |  | 10 µM |  | remaining binding | 0% |
| O=C(Cc1ccc(OCc2ccccc2)cc1)NC1(C(=O)O)CCN(C(=O)c2ccc(-c3cccc(Cl)c3)cc2)CC1 | enzyme activity, inhibitor |  | 10 µM |  | activity vs control | 102% |
| Cc1ccc(C(=O)Nc2ccc(CN3CCN(C)CC3)c(C(F)(F)F)c2)cc1C#Cc1cnc2cccnn12 | target engagement, NanoBRET | human cells |  |  | Hill slope | 0.0381 |
| COc1cc(Nc2nccc(-c3cnn4nc(OC)ccc34)n2)cc(C(F)(F)F)c1 | binding, competition with immobilised ligand |  | 1 µM |  | remaining binding | 100% |
| COc1ccc(NC(=O)Nc2ccc3c(c2)C(=O)N(C(C)CO)CC(C)C(CN(C)Cc2ccc4c(c2)OCO4)O3)cc1 (stereo not drawn) | kinase activity, KinaseProfiler |  | 0.03 µM, species human | baseline: control | remaining activity | 96% |

A few entries again:
| Compound | test | system | setting | scale | endpoint | result |
| --- | --- | --- | --- | --- | --- | --- |
| Cc1ccc(C(=O)Nc2ccc(CN3CCN(C)CC3)c(C(F)(F)F)c2)cc1C#Cc1cnc2cccnn12 | target engagement, NanoBRET | human cells |  |  | Hill slope | 0.0381 |
| CN1CCN(Cc2ccc(NC(=O)c3cccc(C#Cc4cnc(N)c5ncccc45)c3)cc2C(F)(F)F)CC1 | cell-free assay, competition with immobilised ligand |  | 50 nM |  | remaining binding | 80% |
